Experimental data gathered from unrelated publications.
A part holds a random share of what one study measured.

Series 1
Target: Phosphate system positive regulatory protein PHO4, full length, GST-tagged (PHO4, Saccharomyces cerevisiae, UniProt P07270, residues 1-312)
Technique: competition protein-binding microarray
Molecule type: double-stranded DNA, one strand shown
Medium: in vitro
Concentration: 2 µM
Notes: whole 60-bp probe, lowest competitor level
With: Cbf1 competitor, 0.05 µM
Reading: higher = stronger binding
Constant ends, left off below: … GTCTTGATTCGCTTGACGCTGCTG
Residues (chain): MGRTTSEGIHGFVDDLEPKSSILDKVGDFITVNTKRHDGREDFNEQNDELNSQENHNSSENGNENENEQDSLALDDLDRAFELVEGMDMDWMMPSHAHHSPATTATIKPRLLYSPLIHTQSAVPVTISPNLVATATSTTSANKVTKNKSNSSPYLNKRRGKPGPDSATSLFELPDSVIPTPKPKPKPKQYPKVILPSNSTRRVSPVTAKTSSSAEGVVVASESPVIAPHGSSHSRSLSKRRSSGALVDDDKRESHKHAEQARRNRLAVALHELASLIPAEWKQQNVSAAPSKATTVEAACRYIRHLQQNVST
Sequence	fluorescence intensity
AAATTACTAAGTTAGCACGTGTTTTACCCCGTATGA	18800 a.u.
CCAGTCTCTGTCTTGCGCGTGCAAATAAGTGCCGGC	9040 a.u.
GTCTTGTCTCATTGGAATGTGGGTGTCCCCACTTCA	6390 a.u.
ACAAGCGGTTTTTTTTTCGTGGGTAAACATTATTTG	4000 a.u.
AAAGCGGTAATTTGAGCAGTGGGTGCAGATATCTAT	4640 a.u.

Series 2
Target: Transcription factor SOX-2, HMG box (Sox2, Mus musculus, UniProt P48432, residues 41-119)
UniProt P48432, sequence (41-119, looked up): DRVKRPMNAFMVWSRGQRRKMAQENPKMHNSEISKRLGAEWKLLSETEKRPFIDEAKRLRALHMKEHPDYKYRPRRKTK
Technique: Spec-seq
Molecule type: double-stranded DNA, one strand shown
Medium: in vitro
Concentration: not given
Notes: whole probe, mean of replicates
Baseline: not given
Reading: lower = stronger binding
Sequence	relative binding energy [ln ratio]
GAGTCGTCTCGTCAGCACCATCGCACCGTAGAGCACTCAGGTC	0.661
GAGTCGTCTCGTCAGCACCTGCGTTCCGTAGAGCACTCAGGTC	1.22
GAGTCGTCTCGTCAGCACATTCGTTCCGTAGAGCACTCAGGTC	0.0563
GAGTCGTCTCGTCAGCACCATCTAACCGTAGAGCACTCAGGTC	0.417

Series 3
Target: Histone acetyltransferase KAT6A, both winged helices, GST fusion (KAT6A, Homo sapiens, UniProt Q92794, residues 1-181)
Technique: protein binding microarray
Molecule type: double-stranded DNA, one strand shown
Medium: in vitro
Concentration: not given
Notes: 8-mer, flanks averaged, mean of 2 arrays, mostly near background
Baseline: not given
Reading: higher = stronger binding
Residues (chain): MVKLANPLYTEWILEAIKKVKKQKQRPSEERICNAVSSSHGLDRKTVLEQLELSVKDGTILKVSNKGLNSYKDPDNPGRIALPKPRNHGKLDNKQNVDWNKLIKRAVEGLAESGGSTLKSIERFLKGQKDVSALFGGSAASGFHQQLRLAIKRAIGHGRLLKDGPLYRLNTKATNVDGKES
Sequence	E-score
AGAGAGCG	0.0782
TGCTCGAA	-0.0518
AGCCTACT	-0.201
AGGATACA	-0.149
CGTTTTTA	0.147

Further values, each from its own experiment
Molecule	target	assay	system	conditions	how to read	measurement	result
PhoQ, residues 284 288 289 292 302 303 SSYNSA	PhoP, residues 12 14 15 18 19 NQGLL (Escherichia coli, UniProt P23836)	Sort-seq, measured: YFP reporter	E. coli	PhoQ-PhoP variant library, with: 10 µM Mg2+	baseline: high Mg2+ state, higher = stronger signaling	fold induction	6.92
